Assay results pooled from the literature.
Each line is one published result; not all experiments were run side by side. “And” joins repeats or separate records; there may be more than shown.

Substance	tested on	assay	system	setting	scale	quantity	value
milbemycin oxime	Saccharomyces cerevisiae	cell growth	Pdr5 deleted, Cdr1 overexpressed	2^-6.644 µg/mL, with: fluconazole 10 µg/mL	–	OD600	0.312 and 0.245 and 0.398
VMRLQSETSV	human MAGI1-3/6 PDZ construct (MBP fusion)	automated holdup	peptide, crude extract	concentration not given, uncorrected, unit not given	reference: biotin control resin, higher = stronger binding	binding intensity	0.189
CAGATACTCT	Salmonella enterica Typhimurium	RNA-seq, refers to: udg mRNA	peptide, SL1344	5 µM, 15 min	reference: water control	log2 fold change	1.85
maraviroc	HIV-1 ADA	viral replication, qPCR	HIV-infected mice, brain	ip, 120 mg/kg twice daily, 3 weeks post-infection, normalized to CD45+ cells	reference: untreated HIV-infected mice	HIV-1 pol decrease	34.8 fold
colistin	Enterobacter cloacae	broth microdilution	clinical isolate RKI-No 1026/14-1	–	–	MIC	8 µg/mL
colistin	Acinetobacter baumannii	–	clinical strain 2E8	–	–	MIC	1.5 µg/mL
LVHYTHCGSLGV	Epstein-Barr virus	BamHI-W qPCR	peptide, B-NDG humanized mouse, EBV-infected, peripheral blood	20 mg/kg, day 0	–	EBV DNA copy number	0 copies
GSGAGIATEV	human SCRIB PDZ3-4 tandem (MBP fusion)	automated holdup	peptide, crude extract	concentration not given, corrected by standard peak, unit not given	reference: biotin control resin, higher = stronger binding	binding intensity	0.849
CTCATAGACT	Salmonella enterica Typhimurium	broth microdilution	peptide, SL1344	range over 0.3-10 µM, 24 h, 37 °C, Mueller-Hinton broth	–	MIC	> 10 µM
Polymyxin B	Staphylococcus aureus	DiSC3(5) fluorescence	–	concentration not given, 87 min	higher = more depolarisation	membrane depolarisation	495 a.u. and 478 a.u. and 399 a.u.
CTCATACTGA	Salmonella enterica Typhimurium	RNA-seq, refers to: SL1344_3670 mRNA	peptide, SL1344	5 µM, 15 min	reference: water control	log2 fold change	-1.95
colistin	Escherichia coli	tetracycline activity	tetracycline-resistant	0.03125 µM, with: tetracycline	reference: tetracycline alone	fold enhancement	4 fold
